{"data": "Measured values gathered from unrelated publications", "note": "Parts stem from different laboratories: compare values within a part only."}
{"data": "Block 1", "target": "Replicase polyprotein 1ab, polymerase (rep, Severe acute respiratory syndrome coronavirus 2, UniProt P0DTD1)", "observed": "enzyme activity", "mode": "inhibitor", "tested at": "20 µM"}
{"Compound": "OC[C@@H](O)[C@H]1O[C@@H]2O[C@H](C(Cl)(Cl)Cl)O[C@@H]2[C@H]1O", "inhibition [%]": -5.77}
{"Compound": "Cc1cc(C)c(S(=O)(=O)Nc2ccccc2C(F)(F)F)c(C)c1", "inhibition [%]": -5.79}
{"Compound": "C[C@H]1CN(C[C@H](Cc2ccccc2)C(=O)NCC(=O)O)CC[C@@]1(C)c1cccc(O)c1", "inhibition [%]": -1.69}
{"Compound": "C[C@@H](O)[C@H]1C(=O)N2C(C(=O)O)=C(SCCNC=N)C[C@H]12", "inhibition [%]": -10.1}
{"Compound": "COC(=O)Nc1nc2cc(C(=O)c3ccccc3)ccc2[nH]1", "inhibition [%]": 16.4}
{"Compound": "CCOc1c(N2CCOCC2)cnn(C)c1=O", "inhibition [%]": -2.52}
{"Compound": "CCOC(=O)Nc1cc(-c2ccc(C)c(NS(C)(=O)=O)c2)nn2c(C)nnc12", "inhibition [%]": 7.95}
{"Compound": "COC(=O)C1=CO[C@@H](O[C@@H]2O[C@H](CO)[C@@H](O)[C@H](O)[C@H]2O)[C@@H]2C(CO)=CC[C@H]12", "inhibition [%]": 7.96}
{"Compound": "O=CC[C@@H](O)[C@H](O)[C@H](O)CO", "inhibition [%]": -0.76}
{"Compound": "O=C(COc1cccc2c(=O)[nH]ccc12)c1ccccc1", "inhibition [%]": 3.58}
{"Compound": "CCOc1cc([C@@H](CS(C)(=O)=O)N2C(=O)c3cccc(NC(C)=O)c3C2=O)ccc1OC", "inhibition [%]": 0.36}
{"Compound": "CCN(CC)CCCCN1c2ccccc2Oc2ccc(Cl)cc21", "inhibition [%]": -0.48}
{"Compound": "COc1cc(N2CCC(N3CCN(C)CC3)CC2)ccc1Nc1ncc(Cl)c(Nc2ccccc2S(=O)(=O)C(C)C)n1", "inhibition [%]": -5.15}
{"Compound": "O=C(O)c1cc(/N=N/c2ccc(S(=O)(=O)Nc3ccccn3)cc2)ccc1O", "inhibition [%]": 29.3}
{"Compound": "Fc1ccc(-c2c3cccc(C(F)(F)F)c3nn2Cc2ccc(F)cc2Cl)cc1", "inhibition [%]": -2.59}
{"Compound": "NC(=O)c1ccc([N+](=O)[O-])cc1Cl", "inhibition [%]": 1.15}
{"Compound": "Cn1cc(-c2ccc(S(=O)(=O)n3ccc(/C=C/C(=O)Nc4ccccc4N)c3)cc2)cn1", "inhibition [%]": 1.41}
{"Compound": "CC1(C)S[C@@H]2[C@H](/N=C/N3CCCCCC3)C(=O)N2[C@H]1C(=O)O", "inhibition [%]": 0.74}
{"Compound": "COc1ccc(-c2coc3cc(O)ccc3c2=O)cc1", "inhibition [%]": 28}
{"Compound": "CCCN(C/C=C/I)C1CCc2cccc(O)c2C1 (stereo not shown)", "inhibition [%]": 4.61}
{"Compound": "C#C[C@]1(O)CC[C@H]2[C@@H]3CCC4=CC(=O)CC[C@]4(C)[C@H]3CC[C@@]21C", "inhibition [%]": 0.47}
{"Compound": "CN1CCN(c2nc3ccccc3nc2Cl)CC1", "inhibition [%]": -1.32}
{"Compound": "Cc1cccc2c1CC[C@H](CN1CCC(c3c(Cl)cccc3Cl)CC1)C[C@@H]2O", "inhibition [%]": 1.4}
{"Compound": "COC(=O)c1c(-c2cc(OC)c(OC)c(OC)c2)c2ccnc(OCc3ncccn3)c2c(=O)n1Cc1ccnc(C)c1", "inhibition [%]": -3.58}
{"Compound": "CC(C)NCC(O)c1ccc(N)c(C#N)c1 (stereo not shown)", "inhibition [%]": 0.09}
{"data": "Block 2", "target": "Interferon regulatory factor 3, full length, phosphomimetic (IRF3, Homo sapiens, UniProt Q14653, residues 1-427, S386D/S396D/S398D/S402D/T404D/S405D)", "method": "protein-binding microarray", "form": "double-stranded DNA, one strand shown", "sample": "in vitro", "tested at": "2540 nM top", "notes": "60-bp whole probe", "together with": "salmon DNA 0.4 mg/ml", "reference": "random background probes", "direction": "higher = stronger binding", "constant ends, left off below": "GCCTAGCAC … GTCTTGATTCGCTTGACGCTGCTG", "Target sequence (chain)": "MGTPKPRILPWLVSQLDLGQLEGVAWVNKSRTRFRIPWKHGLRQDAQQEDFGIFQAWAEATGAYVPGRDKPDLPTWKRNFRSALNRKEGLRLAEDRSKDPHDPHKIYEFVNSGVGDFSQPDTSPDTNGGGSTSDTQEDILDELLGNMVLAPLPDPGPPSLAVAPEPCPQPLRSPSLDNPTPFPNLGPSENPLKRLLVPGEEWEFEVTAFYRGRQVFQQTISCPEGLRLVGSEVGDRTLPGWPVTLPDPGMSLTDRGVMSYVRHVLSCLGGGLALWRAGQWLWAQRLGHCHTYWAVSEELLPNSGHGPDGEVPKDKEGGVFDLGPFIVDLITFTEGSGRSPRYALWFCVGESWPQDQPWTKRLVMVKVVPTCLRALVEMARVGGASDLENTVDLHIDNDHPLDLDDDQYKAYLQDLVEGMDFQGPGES"}
{"Sequence": "TTAGAACTGTGACTGGATTAGTGCTAG", "fitted relative affinity": "-0.38 z-score"}
{"Sequence": "AAGAAGCTTCCTCTCTGCCAGTGCTAG", "fitted relative affinity": "-0.2 z-score"}
{"Sequence": "TCACATATATATATGAAACTGTGCTAG", "fitted relative affinity": "0.64 z-score"}
{"Sequence": "GACGGTTTCGGTCTCGGGGCGTGCTAG", "fitted relative affinity": "8.46 z-score"}
{"Sequence": "GACGGTTTCCTTTCCCGGACGTGCTAG", "fitted relative affinity": "10.1 z-score"}
{"Sequence": "TTAGGTTTCGGACTAGGTTAGTGCTAG", "fitted relative affinity": "5.18 z-score"}
{"Sequence": "TCATTTCTGTTGTCTGTGACTGTGCTA", "fitted relative affinity": "1.97 z-score"}
{"Sequence": "GACGGTCTCGGACTGGGGACGTGCTAG", "fitted relative affinity": "-0.00566 z-score"}
{"data": "Block 3", "cell line": "HEK-293T/ACE2", "tested at": "concentration not given", "time": "16 (unit not given)", "reference": "vehicle"}
{"Structure (SMILES)": "CC(=O)OCC(CCn1cnc2cnc(N)nc21)COC(C)=O", "viability": "97.5%"}
{"Structure (SMILES)": "CC(C)NCC(O)c1ccc(NS(C)(=O)=O)cc1 (stereo not shown)", "viability": "102%"}
{"Structure (SMILES)": "O=C1CC[C@@]2(O)[C@H]3Cc4ccc(O)c5c4[C@@]2(CCN3CC2CC2)[C@H]1O5", "viability": "101%"}
{"data": "Block 4", "organism": "SARS-CoV-2", "observed": "cytopathic effect", "cell line": "Vero E6", "tested at": "10 µM"}
{"SMILES": "O=C(O)/C(S)=C/c1ccc(I)cc1", "inhibition [%]": 12.3}
{"SMILES": "C/C=C1/[C@H](O[C@@H]2O[C@H](CO)[C@@H](O)[C@H](O)[C@H]2O)OC=C(C(=O)OC)[C@H]1CC(=O)OCCc1ccc(O)c(O)c1", "inhibition [%]": 0.3}
{"SMILES": "CC(CN1CC(=O)NC(=O)C1)N1CC(=O)NC(=O)C1 (stereo not shown)", "inhibition [%]": 0.06}
{"data": "Block 5", "target": "Histone acetyltransferase KAT6A, winged helix 2, GST fusion (KAT6A, Homo sapiens, UniProt Q92794, residues 85-181)", "method": "protein binding microarray", "form": "double-stranded DNA, one strand shown", "sample": "in vitro", "tested at": "not given", "notes": "8-mer, flanks averaged, mean of 2 arrays, mostly near background", "reference": "not given", "direction": "higher = stronger binding", "Target sequence (chain)": "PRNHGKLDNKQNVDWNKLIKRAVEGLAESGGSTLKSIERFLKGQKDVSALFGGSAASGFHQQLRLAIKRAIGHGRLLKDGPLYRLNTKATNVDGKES"}
{"Sequence": "AGAACATA", "E-score": -0.104}
{"Sequence": "AACGCAAG", "E-score": 0.038}
{"Sequence": "AGTCCCTG", "E-score": -0.318}
{"Sequence": "ACCTCGCT", "E-score": 0.113}
{"Sequence": "AGTCTAGA", "E-score": -0.163}
{"Sequence": "TAAAAAAA", "E-score": 0.174}
{"Sequence": "AGCTCTAC", "E-score": -0.301}
{"Sequence": "AAAGTTCC", "E-score": -0.231}
{"data": "Block 6", "target": "RNA binding protein fox-1 homolog 2, RRM domain, GST-SBP tag (RBFOX2, Homo sapiens, UniProt O43251-10, residues 100-194)", "method": "RNA Bind-n-Seq", "form": "RNA", "sample": "in vitro", "tested at": "365 nM", "notes": "natural RNA segment, single round, ends assumed", "reference": "no-protein control", "direction": "higher = stronger binding", "Target sequence (chain)": "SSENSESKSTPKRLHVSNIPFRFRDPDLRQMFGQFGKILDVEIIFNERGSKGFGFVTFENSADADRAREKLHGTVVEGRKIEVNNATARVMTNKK"}
{"Sequence": "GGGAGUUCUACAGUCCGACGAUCGGAUAGAGUGAGCCCUCUUGCGUCUUCCAGGGUAGCUCAGGUUGGCCCAGUUUGGGCCAGUCCAUUUUUGGAGGUCACUCUUUCCCCCCUCAUCCCCUCACCUCCUUCUCUGGAAUUCUCGGGUGCCAA", "RBNS enrichment (R)": 0.374}
{"Sequence": "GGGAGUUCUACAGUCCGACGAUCCUCUGUACACAGCCCCGUGAACCCUGAGGAGUGGAGUCAUACACGAAGGGCGUGUGGCCAUCGUGUCAGCAGAGAGAGUCUCUGUACACAGCCCCGUGAACCCUGAGGAGUGGAAUUCUCGGGUGCCAA", "RBNS enrichment (R)": 0.354}
{"Sequence": "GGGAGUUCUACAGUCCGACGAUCCUUGAGUUAAUCAACCACUGGCAAAUCCCAUUUGACAAAGAUUAGCAUUGUAAAAAACAGAUACUGUGGUAGAUUUCUAGAAAUUCAUUCACAUUUAAGACUUCUAAAAUUGGAAUUCUCGGGUGCCAA", "RBNS enrichment (R)": 0.455}
{"Sequence": "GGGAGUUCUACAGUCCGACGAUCAACUUGUGUUCCAGCUGAGGAGUGUCCCAGGUGUUAACGAGACUGAGGCCUAUUGCUGGAGUUCAGAUACUGCAGCUCCUCUUGUUUUUCUGCACUGUGUUUGCCAGCCCUGGAAUUCUCGGGUGCCAA", "RBNS enrichment (R)": 3.91}
{"Sequence": "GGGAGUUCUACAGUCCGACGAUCUUACAGGUCGUUAUUCUUCUAAGCAGUAGGUAACUUUUCCUGGGUUUCAUUCUUUCUAGUGUACUAGAUCCAGAAAUUUAGUGUGAUGCCCUGCUUUCUCUUUUCUUUGAUGGAAUUCUCGGGUGCCAA", "RBNS enrichment (R)": 0.294}
{"Sequence": "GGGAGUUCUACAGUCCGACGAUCUGUUGGUACUCAGAGUUGUAUUUGCAGCAGAAAAUGCAGAAUAACCCAGAAAUGGAGCCCGGAGCCCAAUUCCAGAGAGGAAGGGAAAGAAGAGACGAUGCCUGGACAAUUGGAAUUCUCGGGUGCCAA", "RBNS enrichment (R)": 0.706}
{"Sequence": "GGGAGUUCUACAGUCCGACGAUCCCAGUCCUGAGGGAGGGGCUUGCCCCACCUUCUACAUUCCAAUUUUUAUAUCUUUGAAUUAUGUGAUUAGAUAUUAAUUUAAUGAUAAAACCACUCUGAAAGCUCUUCUCUGGAAUUCUCGGGUGCCAA", "RBNS enrichment (R)": 0.428}
{"Sequence": "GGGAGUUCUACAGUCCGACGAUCCUUGUCUUUACAAAAUAUAAUUGAUUAAGAUAUGUCAAGACCUACAUUGUCUAAGCACCGGCAAAUUAAAAUGUCGAGAAUCACUUCAGUCAAAAACCUUUAUAUUCUGUUGGAAUUCUCGGGUGCCAA", "RBNS enrichment (R)": 0.372}
